Measurements of several laboratories.
Lines come from different studies, so protocols differ. ± gives the spread as reported.
Organism: HIV-1
Read-out: viral replication

C=C(C)[C@@H]1CC[C@]2(C(=O)OCCC)CC[C@]3(C)[C@H](CC[C@@H]4[C@@]5(C)CC[C@H](O)C(C)(C)[C@@H]5CC[C@]43C)[C@@H]12 — IC50 (item: p24; MT4, NL4-3; 96 h): > 10000 nM
CN(C)CCCn1c(=O)c2ccc3c(=O)n(CCCN(C)C)c(=O)c4c5[nH]c6ccccc6[nH]c5c(c1=O)c2c34 — therapeutic window (TZM-bl, NL4-3; range active at 80% cytotoxicity or less): 3.9 to 250 nM
C=C(C)[C@@H]1CC[C@]2(C(=O)N3CCN(CCCC(=O)O)CC3)CC[C@]3(C)[C@H](CC[C@@H]4[C@@]5(C)CC[C@H](O)C(C)(C)[C@@H]5CC[C@]43C)[C@@H]12 — IC50 (item: p24; MT4, NL4-3; 96 h): > 10000 nM
Cc1cc(C)cc(S(=O)(=O)c2c(C(=O)NCCCNS(=O)(=O)c3ccc(F)cc3)[nH]c3ccc(Cl)cc23)c1 — EC50 (MT-4, IIIB): 38 ± 6.9 nM
CN(C)c1ccc(Nc2c3ccc(NC(=O)CCN4CCCC4)cc3nc3cc(NC(=O)CCN4CCCC4)ccc23)cc1.Cl.Cl.Cl — therapeutic window (TZM-bl, NL4-3; range active at 80% cytotoxicity or less): 3000 to 12000 nM
C=C(C)[C@@H]1CC[C@]2(C(=O)OCCCCCC)CC[C@]3(C)[C@H](CC[C@@H]4[C@@]5(C)CC[C@H](O)C(C)(C)[C@@H]5CC[C@]43C)[C@@H]12 — IC50 (item: p24; MT4, NL4-3; 96 h): > 10000 nM
Cc1cc(C)cc(S(=O)(=O)c2c(C(=O)NCCNS(=O)(=O)c3ccc([N+](=O)[O-])cc3)[nH]c3ccc(Cl)cc23)c1 — EC50 (MT-4, IIIB): 120 ± 29 nM
CN(C)CCCn1c(=O)c2ccc3c(=O)n(CCCN(C)C)c(=O)c4c5[nH]c6cc([N+](=O)[O-])ccc6[nH]c5c(c1=O)c2c34 — therapeutic window (TZM-bl, NL4-3; range active at 80% cytotoxicity or less): 3.9 to 125 nM
C=C(C)[C@@H]1CC[C@]2(C(=O)O)CC[C@]3(C)[C@H](CC[C@@H]4[C@@]5(C)CC[C@H](OCOCCOC)C(C)(C)[C@@H]5CC[C@]43C)[C@@H]12 — IC50 (item: p24; MT4, NL4-3; 96 h): > 10000 nM
Cc1cc(C)cc(S(=O)(=O)c2c(C(=O)NCCNS(=O)(=O)c3cccc(F)c3)[nH]c3ccc(Cl)cc23)c1 — EC50 (MT-4, IIIB): 36 ± 3.6 nM
C=C(C)[C@@H]1CC[C@]2(C(=O)OCOC)CC[C@]3(C)[C@H](CC[C@@H]4[C@@]5(C)CC[C@H](O)C(C)(C)[C@@H]5CC[C@]43C)[C@@H]12 — IC50 (item: p24; MT4, NL4-3; 96 h): > 10000 nM
Cc1cc(C)cc(S(=O)(=O)c2c(C(=O)NCCNS(=O)(=O)c3ccc(C#N)cc3)[nH]c3ccc(Cl)cc23)c1 — EC50 (MT-4, IIIB): 65 ± 19 nM
C=C(C)[C@@H]1CC[C@]2(C(=O)N3CCN(CCCCC(=O)O)CC3)CC[C@]3(C)[C@H](CC[C@@H]4[C@@]5(C)CC[C@H](O)C(C)(C)[C@@H]5CC[C@]43C)[C@@H]12 — IC50 (item: p24; MT4, NL4-3; 96 h): > 10000 nM
c1nc2c(NCC3CCC(CNCCCNC4CCCCC4)CC3)nc(N3CCNCC3)nc2[nH]1 (centres unmarked) — IC50 (inhibitor; TZM-bl, IIIB): 2.3 nM
Cc1cc(C)cc(S(=O)(=O)c2c(C(=O)NCCCCCNS(=O)(=O)c3ccc(C#N)cc3)[nH]c3ccc(Cl)cc23)c1 — EC50 (MT-4, IIIB): 33 ± 8.2 nM
O=c1[nH]c(=O)n([C@H]2C[C@H](OP(=O)(O)OC[C@H]3O[C@H](O)[C@H](O)[C@@H](O)[C@@H]3O)[C@@H](CO)O2)cc1I — EC90 (item: reverse transcriptase activity; human PBM cells, LAI): > 100000 nM
O=c1cc(-c2ccc(O)c(O)c2)oc2cc(O)cc(O)c12 — IC50 (TZM-bl, NL4-3, CXCR4-tropic; 48 h): 1490 nM
Nc1ncnc2c1ncn2[C@H]1CC[C@@H](CO)O1 — EC90 (item: reverse transcriptase activity; human PBM cells, LAI): 3800 nM
Cc1cc(C)cc(S(=O)(=O)c2c(C(=O)NCCNS(=O)(=O)c3ccc(-c4ccccc4)cc3)[nH]c3ccc(Cl)cc23)c1 — EC50 (MT-4, IIIB): 210 ± 48 nM
CN(C)CCCn1c(=O)c2cc(Br)c3c(=O)n(CCCN(C)C)c(=O)c4c5[nH]c6ccc([N+](=O)[O-])cc6[nH]c5c(c1=O)c2c34 — IC50 (LTR luciferase reporter; TZM-bl, NL4-3; 48 h): < 25 nM
COc1ccc(S(=O)(=O)NCCCCCNC(=O)c2[nH]c3ccc(Cl)cc3c2S(=O)(=O)c2cc(C)cc(C)c2)cc1 — EC50 (MT-4, IIIB): 23 ± 8.1 nM
C=C(C)[C@@H]1CC[C@]2(C(=O)N3CCC(CCCC(=O)NCCCN4CCOCC4)CC3)CC[C@]3(C)[C@H](CC[C@@H]4[C@@]5(C)CC[C@H](O)C(C)(C)[C@@H]5CC[C@]43C)[C@@H]12 — IC50 (item: p24; MT4, NL4-3; 96 h): > 10000 nM
CN(C)CCCn1c(=O)c2cc(Br)c3c(=O)n(CCCN(C)C)c(=O)c4c5[nH]c6ccccc6[nH]c5c(c1=O)c2c34 — IC50 (LTR luciferase reporter; TZM-bl, NL4-3; 48 h): < 25 nM
Cc1cn([C@H]2C=C[C@@H](CO)O2)c(=O)[nH]c1=O — EC90 (item: reverse transcriptase activity; human PBM cells, LAI): 370 nM
Cc1cc(C)cc(S(=O)(=O)c2c(C(=O)NCCNS(=O)(=O)c3ccccc3F)[nH]c3ccc(Cl)cc23)c1 — EC50 (MT-4, IIIB): 18 ± 3.6 nM
C=C(C)[C@@H]1CC[C@]2(C(=O)N3CCC(CCCC(=O)NC)CC3)CC[C@]3(C)[C@H](CC[C@@H]4[C@@]5(C)CC[C@H](O)C(C)(C)[C@@H]5CC[C@]43C)[C@@H]12 — IC50 (item: p24; MT4, NL4-3; 96 h): > 10000 nM

Excerpt of the above:
CN(C)CCCn1c(=O)c2ccc3c(=O)n(CCCN(C)C)c(=O)c4c5[nH]c6cc([N+](=O)[O-])ccc6[nH]c5c(c1=O)c2c34 — therapeutic window (TZM-bl, NL4-3; range active at 80% cytotoxicity or less): 3.9 to 125 nM
C=C(C)[C@@H]1CC[C@]2(C(=O)O)CC[C@]3(C)[C@H](CC[C@@H]4[C@@]5(C)CC[C@H](OCOCCOC)C(C)(C)[C@@H]5CC[C@]43C)[C@@H]12 — IC50 (item: p24; MT4, NL4-3; 96 h): > 10000 nM
